Experimental data gathered from unrelated publications.
Compare with care: the assays were run in different laboratories. ± marks the error that the study gave.
SIRT6: NAD-dependent protein deacylase sirtuin-6 (SIRT6, Homo sapiens, UniProt Q8N6T7)

Amino acid sequences for entries named in this document (tags omitted). Residues count along the entry.
UniProt Q8N6T7, whole entry: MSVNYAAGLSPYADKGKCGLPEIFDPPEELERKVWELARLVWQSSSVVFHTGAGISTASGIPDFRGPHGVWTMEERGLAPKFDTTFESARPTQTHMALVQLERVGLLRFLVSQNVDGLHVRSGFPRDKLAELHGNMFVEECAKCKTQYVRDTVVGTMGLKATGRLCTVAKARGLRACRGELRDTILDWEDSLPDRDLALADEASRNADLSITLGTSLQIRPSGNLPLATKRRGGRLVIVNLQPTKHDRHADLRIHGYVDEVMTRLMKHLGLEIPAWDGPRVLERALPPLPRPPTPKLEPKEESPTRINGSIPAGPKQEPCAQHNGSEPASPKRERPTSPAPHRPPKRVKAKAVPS
UniProt Q08J23, whole entry: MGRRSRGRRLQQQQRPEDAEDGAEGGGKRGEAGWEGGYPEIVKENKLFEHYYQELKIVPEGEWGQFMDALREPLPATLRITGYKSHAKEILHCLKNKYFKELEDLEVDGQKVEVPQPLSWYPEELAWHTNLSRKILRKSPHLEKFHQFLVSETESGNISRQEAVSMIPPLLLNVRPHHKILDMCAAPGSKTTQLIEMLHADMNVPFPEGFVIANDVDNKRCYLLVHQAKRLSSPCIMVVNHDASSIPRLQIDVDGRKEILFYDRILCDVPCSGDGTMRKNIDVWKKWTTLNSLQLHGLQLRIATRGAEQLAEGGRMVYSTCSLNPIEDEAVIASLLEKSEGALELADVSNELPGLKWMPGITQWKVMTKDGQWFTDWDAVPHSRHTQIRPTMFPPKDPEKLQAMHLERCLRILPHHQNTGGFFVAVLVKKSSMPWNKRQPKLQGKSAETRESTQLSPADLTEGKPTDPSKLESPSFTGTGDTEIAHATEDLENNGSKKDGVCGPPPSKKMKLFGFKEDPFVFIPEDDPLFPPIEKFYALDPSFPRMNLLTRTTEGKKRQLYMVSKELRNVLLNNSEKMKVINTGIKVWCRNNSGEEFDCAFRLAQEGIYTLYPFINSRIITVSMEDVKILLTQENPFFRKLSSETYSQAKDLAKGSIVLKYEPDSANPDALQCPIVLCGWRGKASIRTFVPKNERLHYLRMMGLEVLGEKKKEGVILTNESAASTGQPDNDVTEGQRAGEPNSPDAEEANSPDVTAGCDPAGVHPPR
UniProt Q8T6T2, whole entry: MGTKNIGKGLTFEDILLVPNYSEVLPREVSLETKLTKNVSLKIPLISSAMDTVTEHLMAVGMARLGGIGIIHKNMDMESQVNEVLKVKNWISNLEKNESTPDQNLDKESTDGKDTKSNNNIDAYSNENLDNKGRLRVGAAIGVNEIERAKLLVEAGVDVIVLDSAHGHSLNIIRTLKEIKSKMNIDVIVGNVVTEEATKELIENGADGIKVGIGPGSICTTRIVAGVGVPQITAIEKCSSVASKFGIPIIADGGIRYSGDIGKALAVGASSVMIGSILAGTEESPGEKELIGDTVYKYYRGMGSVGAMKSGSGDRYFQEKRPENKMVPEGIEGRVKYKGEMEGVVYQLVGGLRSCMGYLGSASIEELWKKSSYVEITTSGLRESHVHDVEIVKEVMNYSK
UniProt A3FQ16, 1-538: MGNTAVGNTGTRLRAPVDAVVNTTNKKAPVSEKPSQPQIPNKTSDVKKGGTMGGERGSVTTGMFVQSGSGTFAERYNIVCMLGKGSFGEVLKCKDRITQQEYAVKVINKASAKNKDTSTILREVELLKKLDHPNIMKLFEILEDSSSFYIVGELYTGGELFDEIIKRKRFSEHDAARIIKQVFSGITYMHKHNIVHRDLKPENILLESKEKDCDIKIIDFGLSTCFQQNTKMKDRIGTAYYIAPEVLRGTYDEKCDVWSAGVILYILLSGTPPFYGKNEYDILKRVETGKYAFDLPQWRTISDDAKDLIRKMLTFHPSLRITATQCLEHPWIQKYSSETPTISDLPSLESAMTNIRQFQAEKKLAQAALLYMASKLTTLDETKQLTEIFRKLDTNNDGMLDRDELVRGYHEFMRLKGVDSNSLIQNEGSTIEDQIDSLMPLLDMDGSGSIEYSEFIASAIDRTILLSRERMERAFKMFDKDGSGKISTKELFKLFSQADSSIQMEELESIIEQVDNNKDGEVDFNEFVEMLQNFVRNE
UniProt Q14145, 321-609 limits assumed: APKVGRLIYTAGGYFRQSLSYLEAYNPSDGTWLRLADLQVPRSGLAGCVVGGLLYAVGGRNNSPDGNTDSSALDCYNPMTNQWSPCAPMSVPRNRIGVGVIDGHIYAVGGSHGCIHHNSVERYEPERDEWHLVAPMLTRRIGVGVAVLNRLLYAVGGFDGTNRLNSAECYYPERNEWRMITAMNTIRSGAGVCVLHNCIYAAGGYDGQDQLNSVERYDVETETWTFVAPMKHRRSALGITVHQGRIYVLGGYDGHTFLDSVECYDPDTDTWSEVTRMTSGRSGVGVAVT
UniProt Q02768, whole entry: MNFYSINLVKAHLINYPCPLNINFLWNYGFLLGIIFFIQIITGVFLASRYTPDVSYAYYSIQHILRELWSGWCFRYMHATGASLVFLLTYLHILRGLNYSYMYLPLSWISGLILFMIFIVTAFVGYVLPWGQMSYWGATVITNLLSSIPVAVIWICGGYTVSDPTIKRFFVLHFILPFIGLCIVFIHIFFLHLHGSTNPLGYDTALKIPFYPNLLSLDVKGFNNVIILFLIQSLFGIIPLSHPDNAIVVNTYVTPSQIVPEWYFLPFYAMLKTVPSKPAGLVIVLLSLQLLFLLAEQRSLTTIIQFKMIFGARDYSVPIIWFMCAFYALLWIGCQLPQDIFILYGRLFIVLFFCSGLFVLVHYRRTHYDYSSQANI
UniProt P17787, 26-502 limits assumed: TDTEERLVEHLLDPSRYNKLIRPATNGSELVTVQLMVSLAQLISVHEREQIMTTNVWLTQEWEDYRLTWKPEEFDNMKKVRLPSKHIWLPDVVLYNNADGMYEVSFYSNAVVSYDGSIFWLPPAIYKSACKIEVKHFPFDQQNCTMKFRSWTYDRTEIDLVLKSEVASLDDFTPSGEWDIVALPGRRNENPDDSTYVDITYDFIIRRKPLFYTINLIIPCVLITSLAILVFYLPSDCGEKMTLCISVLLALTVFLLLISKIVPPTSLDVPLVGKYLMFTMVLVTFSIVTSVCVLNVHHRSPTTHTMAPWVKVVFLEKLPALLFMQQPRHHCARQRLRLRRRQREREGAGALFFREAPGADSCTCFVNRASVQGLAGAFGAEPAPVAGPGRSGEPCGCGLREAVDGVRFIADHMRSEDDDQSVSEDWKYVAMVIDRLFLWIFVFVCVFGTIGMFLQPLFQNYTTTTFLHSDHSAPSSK
UniProt P43681, 29-627 limits assumed: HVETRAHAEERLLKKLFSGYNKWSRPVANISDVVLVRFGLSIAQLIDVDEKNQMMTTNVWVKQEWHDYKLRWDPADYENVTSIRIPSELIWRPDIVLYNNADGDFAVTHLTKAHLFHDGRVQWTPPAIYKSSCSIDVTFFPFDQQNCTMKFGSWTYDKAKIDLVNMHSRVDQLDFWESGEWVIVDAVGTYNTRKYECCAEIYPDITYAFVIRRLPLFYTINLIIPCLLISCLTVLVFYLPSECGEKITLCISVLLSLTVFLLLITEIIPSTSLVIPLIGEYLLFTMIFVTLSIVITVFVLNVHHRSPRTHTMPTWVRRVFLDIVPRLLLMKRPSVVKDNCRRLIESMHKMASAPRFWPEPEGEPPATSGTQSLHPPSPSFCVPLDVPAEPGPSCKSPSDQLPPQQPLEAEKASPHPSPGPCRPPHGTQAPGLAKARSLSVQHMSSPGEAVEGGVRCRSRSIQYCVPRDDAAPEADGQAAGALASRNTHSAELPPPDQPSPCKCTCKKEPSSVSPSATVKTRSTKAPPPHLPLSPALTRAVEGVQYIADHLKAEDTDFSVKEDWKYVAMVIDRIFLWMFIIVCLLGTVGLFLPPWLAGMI
UniProt Q9WMX2, 1192-1657 limits assumed: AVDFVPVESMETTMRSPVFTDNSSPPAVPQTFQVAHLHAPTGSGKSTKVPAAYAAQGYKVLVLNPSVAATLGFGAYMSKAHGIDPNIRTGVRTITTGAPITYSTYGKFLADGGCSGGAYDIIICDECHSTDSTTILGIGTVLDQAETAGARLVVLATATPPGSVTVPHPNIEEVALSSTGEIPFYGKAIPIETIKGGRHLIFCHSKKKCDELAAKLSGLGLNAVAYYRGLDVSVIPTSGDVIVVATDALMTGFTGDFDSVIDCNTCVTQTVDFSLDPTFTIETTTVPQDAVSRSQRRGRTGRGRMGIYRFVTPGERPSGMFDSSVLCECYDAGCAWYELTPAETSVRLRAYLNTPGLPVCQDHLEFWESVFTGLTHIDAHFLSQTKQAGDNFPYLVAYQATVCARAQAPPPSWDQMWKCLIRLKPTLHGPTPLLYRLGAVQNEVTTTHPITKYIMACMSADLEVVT
UniProt P15307, whole entry: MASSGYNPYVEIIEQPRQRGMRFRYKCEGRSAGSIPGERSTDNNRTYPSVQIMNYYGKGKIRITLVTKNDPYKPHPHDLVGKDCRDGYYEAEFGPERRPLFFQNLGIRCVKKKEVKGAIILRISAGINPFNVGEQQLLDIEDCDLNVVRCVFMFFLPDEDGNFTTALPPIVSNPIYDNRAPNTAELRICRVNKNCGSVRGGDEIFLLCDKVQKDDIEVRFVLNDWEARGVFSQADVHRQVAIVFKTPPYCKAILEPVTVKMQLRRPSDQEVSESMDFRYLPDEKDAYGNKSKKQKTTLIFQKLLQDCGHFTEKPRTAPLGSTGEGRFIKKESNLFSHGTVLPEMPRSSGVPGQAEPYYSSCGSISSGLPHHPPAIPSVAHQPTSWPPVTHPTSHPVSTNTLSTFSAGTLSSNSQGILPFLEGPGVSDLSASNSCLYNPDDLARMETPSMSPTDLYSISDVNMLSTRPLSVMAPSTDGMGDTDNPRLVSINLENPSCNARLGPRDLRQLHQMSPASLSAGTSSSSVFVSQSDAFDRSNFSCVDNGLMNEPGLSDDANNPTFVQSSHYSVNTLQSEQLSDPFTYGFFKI
UniProt P00760, 24-246 limits assumed: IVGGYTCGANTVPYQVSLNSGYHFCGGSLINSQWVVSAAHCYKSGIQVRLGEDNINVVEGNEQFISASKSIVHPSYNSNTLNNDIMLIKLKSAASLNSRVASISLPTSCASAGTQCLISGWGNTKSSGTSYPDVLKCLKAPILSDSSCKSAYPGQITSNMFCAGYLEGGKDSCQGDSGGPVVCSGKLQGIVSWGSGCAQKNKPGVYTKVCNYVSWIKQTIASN
UniProt Q16566, whole entry: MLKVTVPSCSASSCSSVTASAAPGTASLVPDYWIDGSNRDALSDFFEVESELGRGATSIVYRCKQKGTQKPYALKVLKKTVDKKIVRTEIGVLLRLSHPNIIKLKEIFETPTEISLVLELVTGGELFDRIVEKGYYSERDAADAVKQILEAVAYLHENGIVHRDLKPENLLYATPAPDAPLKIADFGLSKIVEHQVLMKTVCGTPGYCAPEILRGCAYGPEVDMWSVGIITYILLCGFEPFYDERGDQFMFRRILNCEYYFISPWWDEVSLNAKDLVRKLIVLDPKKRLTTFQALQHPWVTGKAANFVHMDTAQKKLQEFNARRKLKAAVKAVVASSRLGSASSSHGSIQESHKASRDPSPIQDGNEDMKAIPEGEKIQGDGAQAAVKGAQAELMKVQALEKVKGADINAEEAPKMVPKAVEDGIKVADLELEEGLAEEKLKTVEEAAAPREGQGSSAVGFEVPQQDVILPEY
UniProt Q9LCT3, whole entry: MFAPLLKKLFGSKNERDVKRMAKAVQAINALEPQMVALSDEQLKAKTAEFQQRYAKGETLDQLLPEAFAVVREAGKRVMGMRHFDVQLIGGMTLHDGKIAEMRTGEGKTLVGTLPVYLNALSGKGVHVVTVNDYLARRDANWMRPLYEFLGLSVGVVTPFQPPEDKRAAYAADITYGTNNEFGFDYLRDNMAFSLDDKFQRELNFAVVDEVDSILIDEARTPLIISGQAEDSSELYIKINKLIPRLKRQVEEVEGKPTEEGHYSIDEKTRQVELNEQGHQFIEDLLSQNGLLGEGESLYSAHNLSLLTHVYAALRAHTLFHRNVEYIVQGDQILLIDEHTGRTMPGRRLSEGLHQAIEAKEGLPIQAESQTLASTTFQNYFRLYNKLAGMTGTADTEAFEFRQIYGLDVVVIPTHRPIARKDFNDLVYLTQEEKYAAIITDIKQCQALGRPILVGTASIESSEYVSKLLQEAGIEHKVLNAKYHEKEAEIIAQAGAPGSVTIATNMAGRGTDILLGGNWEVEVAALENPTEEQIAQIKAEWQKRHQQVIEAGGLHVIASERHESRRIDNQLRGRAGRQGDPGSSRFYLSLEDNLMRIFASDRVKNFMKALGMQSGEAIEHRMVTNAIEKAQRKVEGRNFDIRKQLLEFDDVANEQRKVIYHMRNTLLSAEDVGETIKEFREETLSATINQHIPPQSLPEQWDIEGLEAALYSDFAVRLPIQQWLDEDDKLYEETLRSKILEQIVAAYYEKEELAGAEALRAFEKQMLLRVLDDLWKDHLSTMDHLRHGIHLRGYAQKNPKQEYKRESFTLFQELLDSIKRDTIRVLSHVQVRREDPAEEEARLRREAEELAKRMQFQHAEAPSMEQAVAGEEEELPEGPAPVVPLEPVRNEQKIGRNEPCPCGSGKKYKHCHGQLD

| SMILES | tested on | test | system | setting | scale | endpoint | result |
| --- | --- | --- | --- | --- | --- | --- | --- |
| CCCCCCCCCCCCCC(=S)NCCCC[C@H](NC(=O)OCc1ccccc1)C(=O)O | SIRT6 | demyristoylase activity, inhibitor |  |  |  | IC50 | ~50 µM |
| CCCCCCCCCCCCCC(=S)NCCCC[C@H](NC(=O)OCc1ccccc1)C(=O)Nc1cccc(O)c1 | SIRT6 | defatty-acylase activity, inhibitor |  | 15 min preincubation, together with: H3K9-Myr peptide substrate |  | IC50 | > 100 µM |
| C=CC(=O)N1C[C@H](c2ccc(Br)cc2)[C@@H]1C(=O)Nc1cccc2cccnc12 | NSUN2 (Homo sapiens, UniProt Q08J23) | tRNA methylation, inhibitor, LC-MS/MS m5C | cell lysate | 1 h, together with: tRNA Gly-CCC |  | IC50 | 2.4 ± 0.9 µM |
| O=C(Cn1c(-c2ccccn2)nc2ccccc21)Nc1ccc2ccccc2c1 | Inosine-5'-monophosphate dehydrogenase (Cryptosporidium parvum, UniProt Q8T6T2) | enzyme activity, inhibitor |  | corrected for open enzyme conformation |  | IC50 | 0.0016 µM |
| CCOc1ccc2cc(-c3nn(C(C)(C)CCO)c(N)c3C(N)=O)ccc2c1 | Calmodulin-domain protein kinase 1, putative (Cryptosporidium parvum, UniProt A3FQ16) | kinase activity, inhibitor |  |  |  | IC50 | 0.0025 µM |
| C[C@@H](O)[C@@H]1NC(=O)[C@H](CCC(=O)O)NC(=O)[C@H](CO)NC(=O)[C@H](CC(=O)O)NC(=O)[C@@H](N)Cc2ccc(cc2)OCCSC[C@@H](C(=O)O)NC(=O)[C@H](CCC(=O)O)NC(=O)CNC1=O | Kelch-like ECH-associated protein 1, Kelch domain (KEAP1, Homo sapiens, UniProt Q14145) | plate binding |  | tag-free macrocycle |  | Kd | 0.12 ± 0.01 µM |
| CCN1CCN(Cc2ccc(NC(=O)c3ccc(C)c(/C=C/c4cnc5[nH]ccc5c4OC)c3)cc2C(F)(F)F)CC1 | HIP1-PDGFRB fusion | kinase-CDC37 interaction, cell-based kinome screen |  | 5 µM | relative to: vehicle | log2 fold change | 0.266 |
| CCOC(=O)OCOc1c(-c2ccc(Oc3ccc(OC(F)(F)F)cc3)cc2)c(C)nc2cc(OC)c(Cl)cc12 | MT-CYB, bc1 complex (Plasmodium falciparum, UniProt Q02768) | enzyme activity | Plasmodium falciparum mitochondria |  |  | EC50 | 5.3 µM |
| CCN(CC)C(=O)Oc1ccc(C(=O)Nc2cccc3cc[nH]c23)cc1 | Neuronal acetylcholine receptor; alpha4/beta2 (Homo sapiens, UniProt P17787+P43681) | modulator, two-electrode voltage clamp | Xenopus oocytes | 20 µM, together with: 10 µM acetylcholine | relative to: agonist alone | current response | 97.3 ± 3.9% |
| Cc1cc(C(O)(c2ccc(Nc3ccccc3)cc2)c2ccc(Nc3ccc(S(=O)(=O)O)cc3)cc2)ccc1N (stereo not shown) | Genome polyprotein, NS3 helicase domain (Hepatitis C virus genotype 1b, UniProt Q9WMX2) | helicase activity, molecular beacon helicase |  | 12 µM |  | helicase inhibition | no inhibition |
| COc1cc(OC)c2ccccc2c1C=C1C(=O)NC(=S)NC1=O | Proto-oncogene c-Rel (Rel, Mus musculus, UniProt P15307) | inhibitor, flow cytometry | activated T cells, mouse | GDM-12 vehicle, together with: anti-CD3/CD28 |  | IC50 | 2.9 µM |
| Cc1cc(O)c2c(c1)C(=O)c1cc(O)cc(O)c1C2=O | Serine protease 1 (PRSS1, Bos taurus, UniProt P00760) | enzyme activity, inhibitor, fluorescence |  | binding enzyme-substrate complex, together with: Boc-GRR-AMC |  | Ki | 5 ± 0.4 µM |
| CCCN1CCN(c2ccc3c(c2)C2CC3CCN2C(=O)OCc2ccccc2)CC1 (stereo not shown) | HRH2 (Homo sapiens, UniProt P25021) | binding, radioligand binding |  |  |  | Ki | 1.77 µM |
| CC#C/C(=N\OC[C@H]1COCCN1)c1ccc2ncnc(Nc3ccc(OCc4cccc(F)c4)c(Cl)c3)c2c1 | CAMK4 (Homo sapiens, UniProt Q16566) | kinase activity |  | 10 µM |  | inhibition | 1.8% |
| C[C@H](Cc1ccc(O)c(O)c1)[C@@H](C)Cc1ccc(O)c(O)c1 |  |  | human skin | 3% solution, 8 h, skin UV-treated 10 min |  | amount in epidermis | 19.3 ± 2.18 µg |
| CSc1nc(Cl)cc(Sc2nnc(-c3cc(C(F)(F)F)cc(C(F)(F)F)c3)[nH]2)n1 | Protein translocase subunit SecA (secA, Pseudomonas aeruginosa, UniProt Q9LCT3) | inhibitor | proteoliposomes |  |  | IC50 | 3 µM |

For quick reference, copied from above:
| SMILES | tested on | test | system | setting | scale | endpoint | result |
| --- | --- | --- | --- | --- | --- | --- | --- |
| CCCCCCCCCCCCCC(=S)NCCCC[C@H](NC(=O)OCc1ccccc1)C(=O)Nc1cccc(O)c1 | SIRT6 | defatty-acylase activity, inhibitor |  | 15 min preincubation, together with: H3K9-Myr peptide substrate |  | IC50 | > 100 µM |
| C=CC(=O)N1C[C@H](c2ccc(Br)cc2)[C@@H]1C(=O)Nc1cccc2cccnc12 | NSUN2 (Homo sapiens, UniProt Q08J23) | tRNA methylation, inhibitor, LC-MS/MS m5C | cell lysate | 1 h, together with: tRNA Gly-CCC |  | IC50 | 2.4 ± 0.9 µM |
